Measurements from different studies.
Each line is one published result; not all experiments were run side by side. Numbers after ± are the reported error.

Compound	assay	test system	setting	tissue uptake [%ID/g]
CN1C(=O)[C@@H](Cc2ccc(O)c(I)c2)NC(=O)CNC(=O)[C@H](Cc2ccc3ccccc3c2)NC(=O)[C@H](CCCNC(=N)N)NC(=O)[C@H]1CCCNC(=O)c1ccc(CNC(=O)CN2CCN(CC(=O)O)CCN(CC(=O)O)CCN(CC(=O)O)CC2)cc1 [lutetium-177 labelled]	item: 177Lu radioactivity	female CB-17 SCID mice, Daudi xenograft, brain	intravenous, 0.16 nmol per mouse, 6 h	0.02 ± 0.005
CCCC[C@H](NC(=O)CNC(=O)CNC(=O)CN1CCN(CC(=O)O)CCN(CC(=O)O)CCN(CC(=O)O)CC1)C(=O)N[C@H]1CC(=O)NCCCC[C@@H](C(N)=O)NC(=O)[C@H](Cc2c[nH]c3ccccc23)NC(=O)[C@H](CCCNC(=N)N)NC(=O)[C@@H](Cc2ccccc2)NC(=O)[C@H](Cc2c[nH]cn2)NC1=O [gallium-67 labelled]		female C57 mice, B16/F1 melanoma, lung	intravenous, 0.037 MBq, 4 h	0.36 ± 0.08
N=C(N)NCCC[C@H](NC(=O)CON=C[C@H](F)[C@@H](O)[C@H](O)[C@H](O)CO)C(=O)NCC(=O)N[C@@H](CC(=O)O)C(=O)O [fluorine-18 labelled]		nude mice U-87 MG tumour, spleen	intravenous, 2 h	0.64 ± 0.68
CCCC[C@H](NC(=O)CNC(=O)CNC(=O)CN1CCN(CC(=O)O)CCN(CC(=O)O)CC1)C(=O)N[C@H]1CC(=O)NCCCC[C@@H](C(N)=O)NC(=O)[C@H](Cc2c[nH]c3ccccc23)NC(=O)[C@H](CCCNC(=N)N)NC(=O)[C@@H](Cc2ccccc2)NC(=O)[C@H](Cc2c[nH]cn2)NC1=O [gallium-67 labelled]		female C57 mice, B16/F1 melanoma, blood	intravenous, 0.037 MBq, 4 h	1.02 ± 0.06
CC(C)[C@H](NC(=O)[C@@H]1CCCN1C(=O)[C@H](CCCNC(=N)N)NC(=O)[C@H](CS)NC(=O)[C@H](Cc1c[nH]c2ccccc12)NC(=O)[C@H](CCCNC(=N)N)NC(=O)[C@@H](Cc1ccccc1)NC(=O)[C@H](Cc1c[nH]cn1)NC(=O)[C@H](CCC(=O)O)NC(=O)[C@H](CS)NC(=O)[C@H](CS)NC(=O)CNC(=O)[C@@H]1CC(=O)N[C@@H](CCCNC(=N)N)C(=O)NCC(=O)N[C@@H](CC(=O)O)C(=O)N[C@H](Cc2ccc(O)cc2)C(=O)N1)C(N)=O [technetium-99m labelled]		C57 mice B16/F1 melanoma female, bone	iv, 2 h, added: NDP-MSH 10 µg co-injected	1.18 ± 1.07
N=C(N)NCCC[C@@H]1NC(=O)[C@H](CCCCNC(=O)CON=C[C@H](F)[C@@H](O)[C@H](O)[C@H](O)CO)NC(=O)[C@@H](Cc2ccc(O)cc2)NC(=O)[C@H](CC(=O)O)NC(=O)CNC1=O [fluorine-18 labelled]		nude mice U-87 MG tumour, spleen	intravenous, 2 h	0.17 ± 0.2
O=C([O-])CN1CCN(CC(=O)[O-])CCN(CC(=O)[O-])CCN(CC(=O)[O-])CC1.[64Cu+2]		healthy athymic nude mice, kidney	intravenous, 1 h	1.66
NC12CNCCNCC(NCc3ccc(CNC(=O)CCCC(=O)NCc4ccc(-c5nncnn5)cc4)cc3)(CNCCNC1)CNCCNC2.[64Cu+2]		athymic nude mice, SW1222 xenograft, large intestine with contents	12 h, pretargeting with huA33-TCO, 24 h interval	0.2 ± 0.04
CCCC[C@@H]1NC(=O)[C@@H](NC(=O)[C@H](CCC(=O)O)NC(=O)CNC(=O)CN2CCN(CC(=O)O)CCN(CC(=O)O)CCN(CC(=O)O)CC2)CCCCNC(=O)C[C@@H](C(N)=O)NC(=O)[C@H](C(C)C)NC(=O)[C@@H]2CCCN2C(=O)[C@H](CCCNC(=N)N)NC(=O)CNC(=O)[C@H](Cc2c[nH]c3ccccc23)NC(=O)[C@H](CCCNC(=N)N)NC(=O)[C@@H](Cc2ccccc2)NC(=O)[C@H](Cc2c[nH]cn2)NC(=O)[C@H](CCC(=O)O)NC1=O [gallium-67 labelled]		normal C57 mice, brain	intravenous, 0.037 MBq/mouse, 4 h	0.02 ± 0.02
O=C([O-])c1cccc(CN(CCN(Cc2cn(Cc3ccccc3)nn2)Cc2cccc(C(=O)[O-])n2)Cc2cn(Cc3ccccc3)nn2)n1.[64Cu+2]		healthy athymic nude mice, liver	intravenous, 1 h	16
CCCC[C@H](NC(=O)CN1CCC(NC(=O)CN2CCN(CC(=O)O)CCN(CC(=O)O)CCN(CC(=O)O)CC2)CC1)C(=O)N[C@H]1CC(=O)NCCCC[C@@H](C(N)=O)NC(=O)[C@H](Cc2c[nH]c3ccccc23)NC(=O)[C@H](CCCNC(=N)N)NC(=O)[C@@H](Cc2ccccc2)NC(=O)[C@H](Cc2c[nH]cn2)NC1=O [gallium-68 labelled]		C57BL/6J mice male B16-F10 tumour, pancreas	2 h post injection, unblocked	0.1

Excerpt of the above:
Compound	assay	test system	setting	tissue uptake [%ID/g]
CN1C(=O)[C@@H](Cc2ccc(O)c(I)c2)NC(=O)CNC(=O)[C@H](Cc2ccc3ccccc3c2)NC(=O)[C@H](CCCNC(=N)N)NC(=O)[C@H]1CCCNC(=O)c1ccc(CNC(=O)CN2CCN(CC(=O)O)CCN(CC(=O)O)CCN(CC(=O)O)CC2)cc1 [lutetium-177 labelled]	item: 177Lu radioactivity	female CB-17 SCID mice, Daudi xenograft, brain	intravenous, 0.16 nmol per mouse, 6 h	0.02 ± 0.005
